Measured values pooled from the literature.
Numbers after ± are the reported error.

The IC50 of Cc1cc(N)c2cc(NC(=O)CCC(=O)Nc3ccc4nc(C)cc(N)c4c3)ccc2n1 is reported as 1.2 ± 0.11 µM (CHO wild type; FGF2 binding to heparan sulfate, inhibitor, flow cytometry; on ice, with: biotinylated FGF2 2.5 nM).
CCOP(=O)(OCC)C(Cc1cccc(F)c1F)Nc1cccc(C)c1 (stereo not shown) gave an IC50 of 48.6 µM (U-118-MG; cell growth or viability, MTT; 48 h).
With C[O][Pt-2]([NH3+])([NH3+])([Cl])([Cl])[O]C(=O)CCC(=O)O the IC50 was 129 µM (SW480; cell growth or viability, MTT; 96 h).
N=C(N/N=C/c1ccccc1)N/N=C/c1ccccc1 has an IC50 of 9.3 µM (KP-4; cell growth or viability, crystal violet; 72 h).
COc1cc(-c2cc(=O)c3c(O)cc(OC4OC(COC5OC(C)C(O)C(O)C5O)C(O)C(O)C4O)cc3o2)ccc1O (stereo not shown) has an IC50 of greater than 100 µM (HCT-116 p53-/- colon cancer; cytotoxicity, resazurin reduction; 72 h).
For Cc1cc(C#N)cc(C)c1Oc1cc(Nc2ccc(C#N)cc2)nc2cnccc12, the IC50 was greater than 128 µM (HuCC-A1; 48 h).
For COC(=O)[C@H]1[C@H]2C[C@H]3O[C@@]4(CCN3C[C@H]2C[C@@H](OC(=O)c2cc(OC)c(OC)c(OC)c2)[C@@H]1OC)C(=O)Nc1cc(OC)c(-c2ccc(C(C)(C)C)cc2)cc14, the IC50 was 21.3 µM (RS4-11; cell growth or viability, trypan blue; 72 h).
With COc1c(O)cc2oc3c(Br)c(O)c(CC=C(C)C)c(O)c3c(=O)c2c1CC=C(C)C the IC50 was greater than 40 µM (SW480; cell growth or viability; 48 h).
C[C@H]1[C@H](C)CC[C@]2(C)CC[C@]3(C)C(=CC(=O)[C@@H]4[C@@]5(C)CC[C@@H](O)[C@](C)(C(=O)NCCNC(=O)C6CC6)[C@@H]5CC[C@]43C)[C@H]12 has an IC50 of 24.9 µM (HBE; cell growth or viability, MTT; 48 h).
Cc1cnc2c(ccc3c(C)c(C)cnc32)c1C.O=C([O-])Cc1ccccc1Nc1c(Cl)cccc1Cl.O=C([O-])Cc1ccccc1Nc1c(Cl)cccc1Cl.[Mn+2] gave an IC50 of 0.186 ± 0.026 µM (HMLER breast cancer cells; cytotoxicity, MTT; 72 h).
With CC(C)c1cccc(C(C)C)c1N1CCN(c2c(C(C)C)cccc2C(C)C)C1=[Se].[Cl][Au] the IC50 was 4.2 µM (LoVo; cell growth or viability, MTT; 72 h).
The IC50 of CC(C)c1cccc(C(C)C)c1-n1c2c([n+](-c3c(C(C)C)cccc3C(C)C)[c]1[Cu-][Cl])-c1cccc3cccc-2c13 is reported as 7 ± 1 µM (2008; cell growth, MTT; 72 h).
The IC50 of O=C(Nc1ccn([C@@H]2O[C@H](CO)[C@@H](O)[C@H](F)[C@H]2O)c(=O)n1)c1ccccc1 is reported as greater than 200 µM (Molt4/C8; cell growth or viability).
CC1=C2[O][Ru-]([Cl])[O+]=C2C=CN1CCCN1C=CC2=[O+][Ru-]([Cl])[O]C2=C1C.Cc1ccc(C(C)C)cc1.Cc1ccc(C(C)C)cc1 has an IC50 of greater than 20 µM (LCLC-103H; cell growth or viability, crystal violet; 96 h).
With CC(C)Cc1ccc(C(C)C(=O)[O][Pt]([NH2])([NH2])([Cl])([Cl])[O]C(=O)C(Cl)Cl)cc1 (stereo not shown) the IC50 was 0.14 µM (BCPAP; cell growth or viability, MTT; 72 h).
The IC50 of C#Cc1cccc2cc(O)cc(-c3ncc4c(N5CC6CCC(C5)N6)nc(OCC56CCCN5CCC6)nc4c3F)c12 is reported as 0.07 µM (SW1990; cell growth or viability, ATP luminescence).
COc1ccc2cc3[n+](cc2c1OCc1cn(Cc2c(F)cccc2F)nn1)CCc1cc2c(cc1-3)OCO2 gave an IC50 of 46.2 µM (SW1990; cell growth or viability, MTT).
With CCCCCCC(=O)NCCNC(=O)[C@]1(C)[C@@H]2CC[C@]3(C)[C@H](C(=O)C=C4[C@@H]5[C@@H](C)[C@H](C)CC[C@]5(C)CC[C@]43C)[C@@]2(C)CC[C@H]1OC(C)=O the IC50 was 5.94 µM (HBE; cell growth or viability, MTT; 48 h).
Cc1ccc2c(c1)[n+]([O-])c(C#N)c(-c1ccco1)[n+]2[O-] has an IC50 of 4.38 µM (KB; cell growth or viability, resazurin; 72 h).

Some of these lines once more:
For COC(=O)[C@H]1[C@H]2C[C@H]3O[C@@]4(CCN3C[C@H]2C[C@@H](OC(=O)c2cc(OC)c(OC)c(OC)c2)[C@@H]1OC)C(=O)Nc1cc(OC)c(-c2ccc(C(C)(C)C)cc2)cc14, the IC50 was 21.3 µM (RS4-11; cell growth or viability, trypan blue; 72 h).
